Assay results pooled from the literature.
Compare with care: the assays were run in different laboratories.

`O=C(Nc1ccc(C2CCCCC2)cc1)C1(N2CCOCC2)CC1` gave a hepatic clearance of 52 mL/min/kg (liver microsome stability; rat liver microsomes; 1 µM).
For `CN1CCC(N[C@H]2CCc3[nH]c4c(C(N)=O)ccc(-c5ccccc5Cl)c4c3C2)CC1`, the IC50 was 735 nM (K562 parental; cell proliferation).
`Cn1ncc(-c2ccc3c(=O)[nH]nc(CN)c3c2)c1-c1c(F)c(Cl)cc(OC2CC2)c1C#N` has an IC50 of 100 nM (NCI-H1650; cell viability, inhibitor, CellTiter-Glo; 120 h, baseline-subtracted).
For `CNS(=O)(=O)Nc1nccc(Cc2c(C)c3ccc(Oc4ncccc4F)cc3oc2=O)c1F`, the IC50 was 7.91 nM (SW1990; cell viability; 7 days).
`O=C(c1ccc([C@H]2[C@@H](F)[C@@H](F)C[C@@H](F)[C@H]2F)cc1)N1CCCC1` has a hepatic clearance of 46 mL/min/kg (liver microsome stability; rat liver microsomes; 1 µM).
`CCN(C(=O)c1cc(F)ccc1Oc1nncnc1N1CCC2(C1)CN(C(CCCN(C)CCOC)C(C)C)C2)C(C)C` (centres unmarked) has an IC50 of > 2320 nM (OCI-AML-3 (NPM1c); inhibitor, QuantiGene multiplex, measured: FLT3 mRNA).
With `C=CC(=O)N1CCCC(n2c(=O)c3ncccc3n(Cc3ccc(Oc4ccccc4)cc3)c2=O)C1` (centres unmarked) the IC50 was 12000 nM (Pfeiffer; cell growth or viability, MTT; 72 h).
The IC50 of `NC(=O)c1ccc(-c2ccccc2Cl)c2c3c([nH]c12)CC[C@H](N)C3` is reported as 28.7 nM (MINO; cell growth or viability).
For `CCOc1cncc(-c2ccc(NC(=O)C3(c4ccnc(NS(=O)(=O)C5CC5)n4)CCOCC3)nc2)n1`, the IC50 was 231 nM (LS174T; cell growth or viability, ATP luminescence; 72 h).
`Cc1c(C)c2cccnc2c2ncccc12.Cc1ccc2c(Cl)cc(Cl)c([O-])c2n1.Cc1ccc2c(Cl)cc(Cl)c([O-])c2n1.[Co+2]` gave an IC50 of 3290 nM (BEL-7404; cell growth or viability, MTT; 48 h).
The IC50 of `CC(C)c1ccc(N(C)c2ccc3c(c2)OCC[C@H]3CNc2cnccc2C(=O)O)cc1` is reported as ≥ 10000 nM (Calu-1; cell growth or viability, ATP luminescence; 7 days).

For quick reference, copied from above:
`Cc1c(C)c2cccnc2c2ncccc12.Cc1ccc2c(Cl)cc(Cl)c([O-])c2n1.Cc1ccc2c(Cl)cc(Cl)c([O-])c2n1.[Co+2]` gave an IC50 of 3290 nM (BEL-7404; cell growth or viability, MTT; 48 h).
